Results collected from several papers.
Each numbered part is a random draw from the data of one study; scales do not carry over between parts. Substitutions count along the parent as printed.

Block 1
Target: Protein max, full length (MAX, Homo sapiens, UniProt P61244-2, residues 1-151)
Technique: protein-binding microarray
Molecule type: double-stranded DNA, one strand shown
Sample: in vitro
Tested at: not given
Notes: k-mer, scored over probes, only values ≥0.25
Reading: higher = stronger binding
With `CCGCGTGC` the E-score was 0.471.
`ATGAGATG` gave an E-score of 0.267.
`ACATGCTC` has an E-score of 0.412.
With `ATGCAGCA` the E-score was 0.257.
`CCAAACAC` has an E-score of 0.296.
`CGTGCAGA` gave an E-score of 0.347.
For `CACGGGGG`, the E-score was 0.396.
For `CCGTCCCA`, the E-score was 0.256.

Block 2
Target: Interferon regulatory factor 3, full length, phosphomimetic (IRF3, Homo sapiens, UniProt Q14653, residues 1-427, S386D/S396D/S398D/S402D/T404D/S405D)
Technique: protein-binding microarray
Molecule type: double-stranded DNA, one strand shown
Sample: in vitro
Tested at: 2540 nM top
Notes: 60-bp whole probe
Added: salmon DNA 0.4 mg/ml
Baseline: random background probes
Reading: higher = stronger binding
Shared flanks, not repeated: GCCTAGCAC … GTCTTGATTCGCTTGACGCTGCTG
Residues (chain): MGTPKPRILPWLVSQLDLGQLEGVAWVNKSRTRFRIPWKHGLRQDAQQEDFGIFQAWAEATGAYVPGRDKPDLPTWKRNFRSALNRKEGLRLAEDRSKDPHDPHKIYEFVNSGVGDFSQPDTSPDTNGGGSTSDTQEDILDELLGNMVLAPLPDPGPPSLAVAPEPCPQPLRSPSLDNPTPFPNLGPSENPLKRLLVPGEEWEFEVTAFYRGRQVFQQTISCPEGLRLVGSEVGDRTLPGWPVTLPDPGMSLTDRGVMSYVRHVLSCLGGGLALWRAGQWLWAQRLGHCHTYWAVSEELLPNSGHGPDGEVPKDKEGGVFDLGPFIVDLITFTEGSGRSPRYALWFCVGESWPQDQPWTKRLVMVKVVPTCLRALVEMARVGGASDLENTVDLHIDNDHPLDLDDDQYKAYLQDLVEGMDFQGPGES
For `TTACAACTGAGTTTCGATTAGTGCTAG`, “fitted relative affinity” read 2.53 z-score.
`TTAGATTTCGGGCTTCGATTAGTGCTA` — result for “fitted relative affinity”: 0.798 z-score.
`TTATGTTTCGACTTTCGGTTAGTGCTA` — result for “fitted relative affinity”: 3.3 z-score.
Under “fitted relative affinity”, `GGTCTGGCTGGCTCCTGCACGTGCTAG` is recorded as -0.925 z-score.
`GACGGTTTAGGTTCCGGGACGTGCTAG`: “fitted relative affinity” 1.56 z-score.
`CTAATTTTTACTTTCTGAATGTGCTAG`: “fitted relative affinity” 3.39 z-score.
`TTAGGTATTGACTTTCGGTTAGTGCTA` — result for “fitted relative affinity”: 1.36 z-score.
Under “fitted relative affinity”, `TCATCATTTTTTTTCATACTGTGCTAG` is recorded as 0.794 z-score.

Single results of other studies
P1: PafA, mature enzyme, eGFP fusion (Elizabethkingia meningoseptica, UniProt Q9KJX5); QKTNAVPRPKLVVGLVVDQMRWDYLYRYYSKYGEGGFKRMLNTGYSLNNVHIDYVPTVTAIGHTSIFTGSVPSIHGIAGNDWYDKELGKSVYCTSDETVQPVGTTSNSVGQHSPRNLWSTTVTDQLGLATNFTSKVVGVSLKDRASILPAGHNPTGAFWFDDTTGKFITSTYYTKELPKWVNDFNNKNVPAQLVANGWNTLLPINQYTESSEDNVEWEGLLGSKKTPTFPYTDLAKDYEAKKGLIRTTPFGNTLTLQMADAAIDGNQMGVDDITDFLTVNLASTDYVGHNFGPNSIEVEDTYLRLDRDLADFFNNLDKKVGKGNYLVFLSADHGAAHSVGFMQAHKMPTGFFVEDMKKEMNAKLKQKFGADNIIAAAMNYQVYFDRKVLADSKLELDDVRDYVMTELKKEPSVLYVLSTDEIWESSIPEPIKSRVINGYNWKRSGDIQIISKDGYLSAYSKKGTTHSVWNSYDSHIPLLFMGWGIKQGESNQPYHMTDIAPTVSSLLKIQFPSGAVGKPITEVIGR
For `P1 N315G`, “oxyanion analog dissociation constant” read 2.12 µM (tungstate, free oxyanion; microfluidic competitive inhibition; in vitro, cell-free expressed; not given, derived from inhibition constants, unchanged parent 2230 nM; lower = stronger binding).
`PhoQ, residues 284 288 289 292 302 303 NLMGRA` has a fold induction of 5.04 (PhoP, residues 12 14 15 18 19 TTLRV (Escherichia coli, UniProt P23836); Sort-seq, measured: YFP reporter; E. coli; PhoQ-PhoP variant library, added: 10 µM Mg2+; baseline: high Mg2+ state, higher = stronger signaling).
